# Published values gathered from unrelated publications.
# A part holds a random share of what one study measured.

# Sample 1
# Target: Interferon regulatory factor 7, full length, phosphomimetic (IRF7, Homo sapiens, UniProt Q92985, residues 1-503, S101K/S471D/S472D/S475D/S476D/S477D/S483D/S484D/S487D)
# Sequence of UniProt Q92985 (whole entry, unmodified, looked up): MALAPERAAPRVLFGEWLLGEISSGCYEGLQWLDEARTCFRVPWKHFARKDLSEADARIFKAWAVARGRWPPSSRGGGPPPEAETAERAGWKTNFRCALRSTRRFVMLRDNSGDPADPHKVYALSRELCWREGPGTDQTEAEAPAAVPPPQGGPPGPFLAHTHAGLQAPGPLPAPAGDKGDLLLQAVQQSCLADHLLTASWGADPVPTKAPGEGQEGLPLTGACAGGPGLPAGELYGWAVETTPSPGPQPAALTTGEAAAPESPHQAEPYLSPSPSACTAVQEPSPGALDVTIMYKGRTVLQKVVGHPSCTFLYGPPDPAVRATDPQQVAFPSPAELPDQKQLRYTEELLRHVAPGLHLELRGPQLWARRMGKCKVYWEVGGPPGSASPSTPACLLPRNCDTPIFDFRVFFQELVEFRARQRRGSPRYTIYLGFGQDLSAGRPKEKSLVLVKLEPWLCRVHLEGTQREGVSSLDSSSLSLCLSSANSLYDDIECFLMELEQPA
# Technique: protein-binding microarray
# Form: double-stranded DNA, one strand shown
# Matrix: in vitro
# Concentration: 250 nM
# Setting: 60-bp whole probe
# With: salmon DNA 0.4 mg/ml
# Relative to: random background probes
# Direction: higher = stronger binding
# Constant ends, left off below: GCCTAGCAC … GTCTTGATTCGCTTGACGCTGCTG
Strand,log fluorescence [z-score]
TTAGATATAAGTTTCGATTAGTGCTAG,8.7
CACGGACTGGGTATCGGGACGTGCTAG,-0.35
GACGCTATCGGGACTGGAGACGTGCTA,-0.476
TCACCTCCCTGTTTCCAACTGTGCTAG,0.612
TTAGGTTTCCTTTCCCTTAAGTGCTAG,5.67
TCCTCTGTCATTTTCTCTTAGTGCTAG,0.777

# Sample 2
# Target: Histone acetyltransferase KAT6A, winged helix 2, GST fusion (KAT6A, Homo sapiens, UniProt Q92794, residues 85-181)
# Technique: protein binding microarray
# Form: double-stranded DNA, one strand shown
# Matrix: in vitro
# Concentration: not given
# Setting: 8-mer, flanks averaged, mean of 2 arrays, mostly near background
# Relative to: not given
# Direction: higher = stronger binding
# Residues (chain): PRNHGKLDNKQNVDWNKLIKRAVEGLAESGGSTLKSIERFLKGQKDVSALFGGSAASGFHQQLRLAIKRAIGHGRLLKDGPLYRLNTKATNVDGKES
Strand,E-score
ACATCGTC,-0.164
GGTATTAC,0.0185
CATATAGA,-0.0865
GTCCGGAA,0.0271
ATGGTGAA,0.0313

# Sample 3
# Target: Ras GTPase-activating protein-binding protein 1, RRM domain (G3BP1, Homo sapiens, UniProt Q13283)
# Sequence of UniProt Q13283 (whole entry, looked up): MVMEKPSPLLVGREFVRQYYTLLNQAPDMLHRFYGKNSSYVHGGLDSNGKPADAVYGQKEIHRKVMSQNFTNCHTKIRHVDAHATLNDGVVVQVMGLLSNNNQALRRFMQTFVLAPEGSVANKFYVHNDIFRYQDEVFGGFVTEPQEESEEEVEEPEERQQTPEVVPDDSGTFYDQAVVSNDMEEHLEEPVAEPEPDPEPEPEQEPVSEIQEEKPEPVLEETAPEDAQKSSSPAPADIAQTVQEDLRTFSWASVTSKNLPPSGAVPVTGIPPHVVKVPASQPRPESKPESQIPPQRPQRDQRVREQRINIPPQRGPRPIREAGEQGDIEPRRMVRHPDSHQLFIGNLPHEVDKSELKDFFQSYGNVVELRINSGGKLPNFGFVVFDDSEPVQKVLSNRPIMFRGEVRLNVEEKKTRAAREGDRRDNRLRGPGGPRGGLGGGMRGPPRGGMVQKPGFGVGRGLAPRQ
# Technique: RNA Bind-n-Seq
# Form: RNA
# Matrix: in vitro
# Concentration: 1 µM
# Setting: whole 134-nt RNA, ends assumed
# With: 150 mM KCl
# Relative to: input library
# Direction: higher = stronger binding
# Constant ends, left off below: GGGAGUUCUACAGUCCGACGAUC … UGGAAUUCUCGGGUGUCAAGG
Strand,log2 enrichment
CCUGUGCUACACAUCGUAUGUACCGAAUCGGGAAAAAAGGGGAAAAAAGGGAAAAAAGGGAAAGUAUUAUGUUACGCCGUUCGGAUCUGC,-0.0351
ACCAUGCAGGUGGGCAUCUUUGGGAAGUGGGGCAAGGAGGGGAUAGGGAGGGGGGUAACACUUUGGGAACAGGUGGUCCCAGGUCGUUUC,-0.34
AACACUCAAACCACCAUCAAGCUUUUCCAGGAAUGCUGUCCUCAUUCCACUGACAGAGUUGUUCUUAUUGGAGGAAAACCCGAUAGGGUU,-0.168
AGUCCUGUGCUACACAUCGUAUGUACCGAAUCGGGAAAAAGGGAAAAAGGGUUUGGGAAAGUAUUAUGUUACGCCGUUCGGAUCUGCACU,0.201
AGUCCUGUGCUACACAUCGUAUGUACCGAAUCGGGAAAAAGGAAAAAGGGAAAAAGGAAAGUAUUAUGUUACGCCGUUCGGAUCUGCACU,-0.11

# Further values, each from its own experiment
Molecule,target,test,test system,setting,how to read,endpoint,result
"PhoQ, residues 284 288 289 292 302 303 TLMATV","PhoP, residues 12 14 15 18 19 SPWRL (Escherichia coli, UniProt P23836)","Sort-seq, item: YFP reporter",E. coli,"PhoQ-PhoP variant library, with: 10 µM Mg2+","relative to: high Mg2+ state, higher = stronger signaling",fold induction,14.8

# Repeated from above (sample 3):
Strand,log2 enrichment
ACCAUGCAGGUGGGCAUCUUUGGGAAGUGGGGCAAGGAGGGGAUAGGGAGGGGGGUAACACUUUGGGAACAGGUGGUCCCAGGUCGUUUC,-0.34
AACACUCAAACCACCAUCAAGCUUUUCCAGGAAUGCUGUCCUCAUUCCACUGACAGAGUUGUUCUUAUUGGAGGAAAACCCGAUAGGGUU,-0.168
